Measurements pooled from the literature.
Lines come from different studies, so protocols differ. Values joined by “and” are separate records of one study, mostly repeats; a detail may differ. Numbers after ± are the reported error.

COC(=O)C1CN1S(=O)(=O)c1ccc(N)cc1 (stereo not drawn)
IC50 (Balb/c 3T3 fibroblasts; cytotoxicity, neutral red uptake; DMEM with 5% FBS; 24 h): 260 ± 10 µM

COc1cccc2c1C(=O)c1c(O)c3c(c(O)c1C2=O)C[C@@](O)(C(CO)=NNC(=O)CCCCCCCCCCNC(=O)CCCCCCCCCCNC(=O)COCCOCCNC(=O)[C@@H](CC(=O)O)NC(=O)[C@@H](CC(=O)O)NC(=O)[C@@H](CC(=O)O)NC(=O)[C@@H](CC(=O)O)NC(=O)[C@@H](CC(=O)O)NC(=O)[C@@H](CC(=O)O)NC(=O)[C@@H](CC(=O)O)NC(=O)[C@H](N)CC(=O)O)C[C@@H]3O[C@H]1C[C@H](N)[C@H](O)[C@H](C)O1
IC50 (SAOS-2; cell growth or viability, CCK-8; 72 h): 0.39 µM

COC1=C[C@@H]2[C@@H]3Cc4c(COC(=O)c5cnc(C)cn5)cc(OC)c(OC(=O)c5cnc(C)cn5)c4[C@]2(CCN3C)CC1=O
IC50 (RAW264.7; cytotoxicity, MTT; 24 h): > 100 µM

C/C(=N\OCCCN1CCCCC1)c1ccc(C(F)(F)F)cc1
IC50 (HT-22; cell growth or viability, MTT): 95.4 µM

COC(=O)C1CN1S(=O)(=O)c1ccc(NC(C)=O)cc1 (stereo not drawn)
IC50 (Balb/c 3T3 fibroblasts; cytotoxicity, neutral red uptake; DMEM with 5% FBS; 24 h): 600 ± 80 µM

CCCCn1cc(C(=O)O)c(=O)c2cc(F)c3c(nnn3-c3cccc(Cl)c3)c21
IC50 (T47D; cell growth or viability, SRB): 70.9 µM

CC[C@H](C)[C@H](NC(=O)OC(C)(C)C)C(=O)Oc1c(OC)ccc2c1[C@@]13CCN(C)[C@@H](C2)[C@H]1C=C(OC)C(=O)C3
IC50 (RAW264.7; cytotoxicity, MTT; 24 h): > 100 µM

CN(C)C(=O)C1CN1S(=O)(=O)c1ccc(N(C)C)cc1 (stereo not drawn)
IC50 (Balb/c 3T3 fibroblasts; cytotoxicity, neutral red uptake; DMEM with 5% FBS; 24 h): 39 ± 3 µM

CC(C)[C@H](NC(=O)[C@H](CCC(=O)O)NC(=O)[C@@H](NC(=O)[C@@H](C)c1cccc(C(=O)c2ccccc2)c1)C(C)C)C(=O)N[C@@H](CCC(=O)O)C(=O)O
IC50 (rat arthritic fibroblast-like synoviocytes; 48 h): 223 µg/mL

COC(=O)C1CN1S(=O)(=O)c1ccc(Cl)cc1 (stereo not drawn)
IC50 (Balb/c 3T3 fibroblasts; cytotoxicity, neutral red uptake; DMEM with 5% FBS; 24 h): 100 ± 20 µM

Fc1ccc(Nc2nc(SCc3ccccc3Cl)nc3ccccc23)cc1
IC50 (A549-ACE2; cytotoxicity; 48 h): 24.8 µM

COc1cccc2c1C(=O)c1c(O)c3c(c(O)c1C2=O)C[C@@](O)(C(CO)=NNC(=O)CCCCCCCCCCNC(=O)CCCCCCCCCCNC(=O)CCCCCCCCCCNC(=O)CCCCCCCCCCNC(=O)[C@H](CCCCNC(=O)COCCOCCNC(=O)[C@@H](CC(=O)O)NC(=O)[C@@H](CC(=O)O)NC(=O)[C@@H](CC(=O)O)NC(=O)[C@H](N)CC(=O)O)NC(=O)COCCOCCNC(=O)[C@@H](CC(=O)O)NC(=O)[C@@H](CC(=O)O)NC(=O)[C@@H](CC(=O)O)NC(=O)[C@H](N)CC(=O)O)C[C@@H]3O[C@H]1C[C@H](N)[C@H](O)[C@H](C)O1
IC50 (SAOS-2; cell growth or viability, CCK-8; 72 h): 0.45 µM

COC(=O)C1CN1S(=O)(=O)c1ccccc1 (stereo not drawn)
IC50 (Balb/c 3T3 fibroblasts; cytotoxicity, neutral red uptake; DMEM with 5% FBS; 24 h): 3310 ± 947 µM

N=C(NCCCNCCCCCCCNCCCNC(=N)NC(=N)NCCC(c1ccccc1)c1ccccc1)NC(=N)NCCC(c1ccccc1)c1ccccc1
IC50 (K562; cell growth or viability, MTS; 72 h): ~10 µM

CCCCn1cc(C(=O)O)c(=O)c2cc(F)c(Nc3ccccc3Cl)c([N+](=O)[O-])c21
IC50 (T47D; cell growth or viability, SRB): 45.8 µM

CC(C)Cc1ccc(C(C)C(=O)[O-])cc1.CC(C)Cc1ccc(C(C)C(=O)[O-])cc1.[Cu+2].c1ccncc1.c1ccncc1 (stereo not drawn)
IC50 (OVCAR-3; cell viability, MTT; 48 h): 66 µM

CCCCn1cc(C(=O)O)c(=O)c2cc(F)c3c(nnn3-c3ccccc3Cl)c21
IC50 (T47D; cell growth, SRB; 72 h): 71.6 ± 6.6 µg/mL

CCOC(=O)C1CN1S(=O)(=O)c1ccc(C)cc1 (stereo not drawn)
IC50 (Balb/c 3T3 fibroblasts; cytotoxicity, neutral red uptake; DMEM with 5% FBS; 24 h): 8.8 ± 1.2 µM

CO[C@H]1CC(O)=C2C(=O)c3c(cc(C)c(-c4c(C)cc5c(c4O)C(=O)C4=C(O)C[C@H](OC)[C@@H](O)[C@]4(C)O5)c3O)O[C@@]2(C)[C@@H]1O
IC50 (NCI-H187; cell growth or viability, resazurin; 5 days): 0.9 µM

Cc1ccc(S(=O)(=O)N2CC2C(N)=O)cc1 (stereo not drawn)
IC50 (Balb/c 3T3 fibroblasts; cytotoxicity, neutral red uptake; DMEM with 5% FBS; 24 h): 70 ± 7 µM

CCCCn1cc(C(=O)O)c(=O)c2cc(F)c(Nc3ccccc3Cl)c(N)c21
IC50 (PANC-1; cell growth or viability, SRB): 74 µM and 74.3 µM

CC=C(C)C(=O)OC1C(O)C2OC(COC(=O)CCC(=O)CCCCCCC(CCCCC)OC3OC(C)C(O)C(O)C3O2)C1OC(=O)C=Cc1ccccc1 (stereo not drawn)
IC50 (NIH/3T3; cytotoxicity): 0.281 µM

CCCCn1cc(C(=O)O)c(=O)c2cc(F)c(Nc3cccc(Cl)c3)c(N)c21
IC50 (T47D; cell growth or viability, SRB): 14.9 µM and 15 µM

COC1=C[C@@H]2[C@@H]3Cc4ccc(OC)c(OC(=O)[C@@H](N)CC(C)C)c4[C@]2(CCN3C)CC1=O
IC50 (RAW264.7; cytotoxicity, MTT; 24 h): > 100 µM

CCCCn1cc(C(=O)O)c(=O)c2cc(F)c(Nc3cccc(Cl)c3)c([N+](=O)[O-])c21
IC50 (T47D; cell growth or viability, SRB): 40.6 µM and 41 µM

NC(=O)C1CN1S(=O)(=O)c1ccc(C(F)(F)F)cc1 (stereo not drawn)
IC50 (Balb/c 3T3 fibroblasts; cytotoxicity, neutral red uptake; DMEM with 5% FBS; 24 h): 7 ± 1 µM

COC1=C[C@@H]2[C@@H]3Cc4ccc(OC)c(OC(=O)[C@H](C)NC(=O)OC(C)(C)C)c4[C@]2(CCN3C)CC1=O
IC50 (RAW264.7; cytotoxicity, MTT; 24 h): 19.1 ± 2.43 µM
